Assay results gathered from unrelated publications.
Each line is one published result; not all experiments were run side by side. ± marks the error that the study gave.

| Structure (SMILES) | cell line | test | setting | IC50 |
| --- | --- | --- | --- | --- |
| Nc1ncnc2c1ncn2[C@@H]1O[C@H](CSSc2ccccn2)[C@@H](O)[C@H](F)[C@H]1O | L1210 | cell growth or viability | – | 238 µM |
| Cc1c(C)n(-c2c(C(C)C)cccc2C(C)C)c(=[Se])n1-c1c(C(C)C)cccc1C(C)C.[Cl][Au] | A-375 | cell growth or viability, MTT | 72 h | 1 µM |
| COc1cc(-c2nc3ccc(C(=O)NCCCN(C)C)cc3n2C2CCC2)cc(OC)c1OC | 293 T-BRE-Luc | reporter gene, inhibitor | 6 h, together with: BMP7-induced BMP7 500 ng/mL | 2.61 µM |
| [NH2][Pt]1([NH2])([Cl])([O]C(=O)C(F)(F)F)[O]C(=O)C2(CC(=O)C2)C(=O)[O]1 | BGC803 | cell growth or viability, MTT | – | 14.1 µM |
| O=C(/C=C/c1ccc(-c2ccccc2)cc1)N[C@@H]1O[C@H](CO)[C@@H](O)[C@H](O)[C@H]1O | L1210 | cell growth or viability | 48 h | 134 µM |
| CC(C)c1cccc(C(C)C)c1[N+]#[C][Pt-]([Cl])([Cl])=[C](Nc1ccc(CN[C](Nc2c(C(C)C)cccc2C(C)C)=[Au][Cl])cc1)Nc1c(C(C)C)cccc1C(C)C | OVCAR-3 | cell growth or viability | – | > 100 µM |
| N=C(N/N=C/c1cccs1)N/N=C/c1cccs1 | PANC-1 | cell growth or viability, crystal violet | 72 h | 50.1 µM |
| C=CC(=O)Nc1ccc(F)c(-c2ncnc3[nH]cc(C(=O)OCC)c23)c1 | mouse naive B cells | CD69 expression | together with: anti-IgM | > 1.1 µM |
| COc1cc(N2CCN(C)CC2)ccc1Nc1ncc2c(n1)N(C)c1ccc(C)cc1C(=O)N2CC(F)(F)F | PaTu 8988t | cell growth or viability | 5 days | > 20 µM |
| COCCOc1ccc(-c2ccc3[nH]c4ncc(/C=C/c5ccccc5)cc4c3c2)cc1 | parental Ba/F3 (IL-3 dependent) | cell proliferation, [3H]-thymidine incorporation | – | > 10 µM |
| Cl.[Cl][Ru-]1[S+]=C(NC2CCCCC2)N[N+]1=Cc1ccc(N(c2ccc(-c3ccsc3)cc2)c2ccc(-c3ccsc3)cc2)cc1.c1ccccc1 | HeLa S3 | cytotoxicity, MTT | 24 h | > 100 µM |
| C(=C/c1ccccc1)/c1ccccc1 | cord blood CD34+ cells | cell proliferation, CellTiter-Glo | 24 h | > 500 µM |
| C/C1=C\CC[C@@]2(C)O[C@H]2[C@H]2OC(=O)[C@@H](CSC(=S)NCCN(C)C)[C@@H]2CC1 | KG-1a | cell growth or viability, MTT | 72 h | 7.9 µM |
| COc1ccc2nc(NC(=O)c3ccc([C@H](N)c4ccccc4)cc3)sc2c1 | NCI-H2122 | cell growth or viability | – | 0.007 µM |
| CCc1ccc([C@H](C)CC(=O)NC(=O)N[C@@H]2O[C@H](CO)[C@@H](O)[C@H](O)[C@H]2O)cc1 | L1210 | cell growth or viability | 48 h | > 250 µM |
| COc1ccc(-c2cc(=O)c3c(O)cc(O[C@@H]4O[C@H](CO)[C@@H](O)[C@H](O)[C@H]4O)cc3o2)cc1OC | CEM/ADR5000 P-gp overexpressing | cell viability, resazurin reduction | 72 h | 18.7 µM |
| CC(C)c1cccc(C(C)C)c1N1CCN(c2c(C(C)C)cccc2C(C)C)C1=[Se].[Cl][Au] | LoVo-OXP (oxaliplatin-resistant) | MTT | 72 h | 3.4 ± 0.5 µM |
| O=c1[nH]c(=O)n([C@@H]2O[C@H](CSSc3ccccn3)[C@@H](O)[C@H](F)[C@H]2O)cc1F | L1210 | cell growth or viability | – | 54 µM |
| CC(C)c1cccc(C(C)C)c1-n1c(Cl)c(Cl)n(-c2c(C(C)C)cccc2C(C)C)c1=[Se].[Cl][Ag] | H157 spheroids | acid phosphatase | 72 h, 3D spheroid | 12.2 ± 5 µM |
| CC(=O)Oc1ccccc1C(=O)[O][Pt]([NH2])([NH2])([Cl])([Cl])[O]C(=O)CCCc1ccccc1 | 2008 cisplatin-sensitive | cytotoxicity, MTT | 72 h | 0.29 ± 0.11 µM |
| COc1cccc2c1C(=O)c1c(O)c3c(c(O)c1C2=O)C[C@@](O)(C(=O)CO)C[C@@H]3O[C@H]1C[C@H](N)[C@H](O)[C@H](C)O1 | H-BM1 bone marrow fibroblasts | cytotoxicity, MTT | 72 h | ~0.2 µM |

| Structure (SMILES) | cell line | test | setting | IC50 |
| --- | --- | --- | --- | --- |
| [Cl][Au].[Se]=c1n(C23CC4CC(CC(C4)C2)C3)ccn1C12CC3CC(CC(C3)C1)C2 | PSN1 | cell growth or viability, MTT | 72 h | 3.1 µM |
| O=C1C(Cl)=C(NCCN2CCCCC2)C(=O)c2ccccc21 | HEC-1-A | cell growth or viability, MTT | 48 h | 1.07 µM |
| Cc1cc(C)c([N+]#[C][Pd-]([Cl])([Cl])=[C](Nc2cccc(CN[C](NC(C)(C)C)=[Au][Cl])c2)Nc2c(C)cc(C)cc2C)c(C)c1 | OVCAR-3 | cell growth or viability | – | > 100 µM |
| Cc1nn(C)cc1-c1nc2ccc3[nH]ncc3c2c2c1CCCC2 | MV4-11 | cell growth or viability, resazurin | 72 h | 0.744 µM |
| CC(=O)OC[C@H]1O[C@@H](NC(=O)NC(=O)[C@@H](C)Cc2ccc(C(C)C)cc2)[C@H](OC(C)=O)[C@@H](OC(C)=O)[C@@H]1OC(C)=O | L1210 | cell growth or viability | 48 h | 47 µM |
| CC(C)c1cccc(C(C)C)c1-n1ccn(-c2c(C(C)C)cccc2C(C)C)c1=[Se].[Cl][Ag] | H157 spheroids | acid phosphatase | 72 h, 3D spheroid | 34.1 ± 2.2 µM |
| CO[C@H]1N(OC)c2ccccc2[C@@]12CN=C(Nc1cc(C(F)(F)F)cc(C(F)(F)F)c1)S2 (relative stereo) | HCT-116 | cell growth or viability, MTS | 72 h | 32.2 µM |
| CC(C)Cc1ccc(C(C)C(=O)[O][Pt]([NH2])([NH2])([Cl])([Cl])[O]C(=O)CCCc2ccccc2)cc1 (centres unmarked) | PSN1 | cell growth or viability, MTT | 72 h | 0.92 µM |
| Cc1cc(C)c(N[C](NCc2cccc(N[C](Nc3c(C(C)C)cccc3C(C)C)=[Pt-]([Cl])([Cl])[C]#[N+]c3c(C(C)C)cccc3C(C)C)c2)=[Au][Cl])c(C)c1 | OVCAR-3 | cell growth or viability | – | > 100 µM |
| CCN(CC)CCCOc1ccc(-c2ccc3[nH]c4ncc(/C=C/c5ccccc5)cc4c3c2)cc1 | parental Ba/F3 (IL-3 dependent) | cell proliferation, [3H]-thymidine incorporation | – | 1.3 µM |
| Cc1nc(Nc2ncc(C(=O)Nc3c(C)cccc3Cl)s2)cc(N2CCN(CCOC(=O)CCCCCCCCCCN)CC2)n1 | BV-173 | cell growth or viability, MTT | 72 h | < 5.12e-05 µM |
| C=C(C)[C@@H](O)COc1c2ccoc2cc2oc(=O)ccc12 | L5178Y | cell growth or viability, MTT | 24 h | 51.3 µM |
| Cn1ccn(N=Cc2ccccc2SSc2ccccc2C=Nn2ccn(C)c2=S)c1=S | breast, ovarian, colorectal cancer cells | MTT | 72 h, all cell lines of panel | < 1 µM |
| C/C1=C\CC[C@@]2(C)O[C@H]2[C@H]2OC(=O)[C@@H](CSC(=S)N(C)c3ccccn3)[C@@H]2CC1 | KG-1a | cell growth or viability, MTT | 72 h | 13.9 µM |
| COc1cccc(-c2ccc(Nc3ccc(CN(C)C)cc3)c(OC)c2F)c1 | SNU1 | HTRF, item: total Erk | – | > 1000 µM |
| COC(=O)[C@H]1[C@H]2C[C@H]3O[C@@]4(CCN3C[C@H]2C[C@@H](OC(=O)c2cc(OC)c(OC)c(OC)c2)[C@@H]1OC)C(=O)Nc1cc(OC)c(-c2ccc(F)cc2)cc14 | SU-DHL-4 | cell growth or viability, trypan blue | 72 h | 2.26 µM |
| C=CC(=O)N1CCCC(n2c(=O)c3ncccc3n(Cc3ccc(Oc4ccccc4)cc3)c2=O)C1 (centres unmarked) | VL51 | cell growth or viability, MTT | 72 h | 0.5 µM |
| CC(C)c1cccc(C(C)C)c1-n1c2c([n+](-c3c(C(C)C)cccc3C(C)C)[c]1[Cu-][Cl])-c1cccc3cccc-2c13 | PSN1 | cell growth or viability, MTT | 72 h | 7 µM |
| CCC(C(=O)O)C1CCC(C)C(C(C)C(O)C(C)C(=O)C(CC)C2OC3(C=CC(NCc4cn(CCCCSC(C)=O)nn4)C4(CCC(C)(C5CCC(O)(CC)C(C)O5)O4)O3)C(C)CC2C)O1 (centres unmarked) | HMLER CD24low/CD44high | cell proliferation | 72 h | 0.46 ± 0.03 µM |
| c1n[nH]cc1-c1nc2ccc3[nH]ncc3c2c2c1CCCC2 | Molm13 resistant FLT3-ITD D835Y | cell growth | 72 h | 0.0402 µM |

Repeated from above:
| Structure (SMILES) | cell line | test | setting | IC50 |
| --- | --- | --- | --- | --- |
| C=C(C)[C@@H](O)COc1c2ccoc2cc2oc(=O)ccc12 | L5178Y | cell growth or viability, MTT | 24 h | 51.3 µM |
| CCc1ccc([C@H](C)CC(=O)NC(=O)N[C@@H]2O[C@H](CO)[C@@H](O)[C@H](O)[C@H]2O)cc1 | L1210 | cell growth or viability | 48 h | > 250 µM |
| Cc1cc(C)c([N+]#[C][Pd-]([Cl])([Cl])=[C](Nc2cccc(CN[C](NC(C)(C)C)=[Au][Cl])c2)Nc2c(C)cc(C)cc2C)c(C)c1 | OVCAR-3 | cell growth or viability | – | > 100 µM |
| C(=C/c1ccccc1)/c1ccccc1 | cord blood CD34+ cells | cell proliferation, CellTiter-Glo | 24 h | > 500 µM |
| O=c1[nH]c(=O)n([C@@H]2O[C@H](CSSc3ccccn3)[C@@H](O)[C@H](F)[C@H]2O)cc1F | L1210 | cell growth or viability | – | 54 µM |
| COc1cccc(-c2ccc(Nc3ccc(CN(C)C)cc3)c(OC)c2F)c1 | SNU1 | HTRF, item: total Erk | – | > 1000 µM |
| CC(C)c1cccc(C(C)C)c1-n1ccn(-c2c(C(C)C)cccc2C(C)C)c1=[Se].[Cl][Ag] | H157 spheroids | acid phosphatase | 72 h, 3D spheroid | 34.1 ± 2.2 µM |
